Measured values collected from several papers.
Each numbered part is a random draw from the data of one study; scales do not carry over between parts. “And” joins repeats or separate records; there may be more than shown.
Sequence of UniProt Q9Y5N1 (whole entry, looked up): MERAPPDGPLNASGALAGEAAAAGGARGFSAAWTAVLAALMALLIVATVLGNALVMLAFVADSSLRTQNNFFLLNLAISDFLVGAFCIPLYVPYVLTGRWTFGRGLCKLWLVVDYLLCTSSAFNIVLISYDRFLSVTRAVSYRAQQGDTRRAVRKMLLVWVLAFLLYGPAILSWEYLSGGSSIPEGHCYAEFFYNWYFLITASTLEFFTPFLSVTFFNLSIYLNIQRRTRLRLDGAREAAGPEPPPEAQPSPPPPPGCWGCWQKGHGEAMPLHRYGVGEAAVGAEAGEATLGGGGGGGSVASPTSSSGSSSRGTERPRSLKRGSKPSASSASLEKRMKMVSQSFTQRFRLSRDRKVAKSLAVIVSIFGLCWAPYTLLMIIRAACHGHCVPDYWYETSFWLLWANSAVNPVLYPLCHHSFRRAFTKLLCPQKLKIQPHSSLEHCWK
Sequence of UniProt P08588 (whole entry, looked up): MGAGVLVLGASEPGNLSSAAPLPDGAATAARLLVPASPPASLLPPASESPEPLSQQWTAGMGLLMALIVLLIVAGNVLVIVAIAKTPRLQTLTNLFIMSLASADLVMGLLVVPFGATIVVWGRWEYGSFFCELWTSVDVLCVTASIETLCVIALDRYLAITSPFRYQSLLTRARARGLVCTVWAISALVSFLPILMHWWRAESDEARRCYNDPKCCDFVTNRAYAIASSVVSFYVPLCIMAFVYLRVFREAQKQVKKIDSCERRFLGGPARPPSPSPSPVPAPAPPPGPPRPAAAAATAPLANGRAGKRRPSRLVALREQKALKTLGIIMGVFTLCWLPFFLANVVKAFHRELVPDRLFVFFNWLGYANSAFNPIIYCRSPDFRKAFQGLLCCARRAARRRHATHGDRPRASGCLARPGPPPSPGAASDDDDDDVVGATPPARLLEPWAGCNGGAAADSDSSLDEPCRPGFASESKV
Sequence of UniProt P18089 (whole entry, looked up): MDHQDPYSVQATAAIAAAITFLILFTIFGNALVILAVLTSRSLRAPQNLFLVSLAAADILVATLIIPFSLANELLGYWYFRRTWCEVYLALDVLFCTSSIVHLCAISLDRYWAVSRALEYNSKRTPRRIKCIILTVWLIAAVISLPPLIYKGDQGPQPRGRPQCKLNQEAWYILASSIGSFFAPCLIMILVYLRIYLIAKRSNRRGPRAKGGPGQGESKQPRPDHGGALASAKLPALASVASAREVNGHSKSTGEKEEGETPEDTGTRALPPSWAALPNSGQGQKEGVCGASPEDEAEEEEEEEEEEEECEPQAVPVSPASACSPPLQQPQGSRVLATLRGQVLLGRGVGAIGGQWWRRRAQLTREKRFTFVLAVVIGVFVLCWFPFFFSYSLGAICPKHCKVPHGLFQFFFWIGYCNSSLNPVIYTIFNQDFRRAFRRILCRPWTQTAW
Sequence of UniProt P13945 (whole entry, looked up): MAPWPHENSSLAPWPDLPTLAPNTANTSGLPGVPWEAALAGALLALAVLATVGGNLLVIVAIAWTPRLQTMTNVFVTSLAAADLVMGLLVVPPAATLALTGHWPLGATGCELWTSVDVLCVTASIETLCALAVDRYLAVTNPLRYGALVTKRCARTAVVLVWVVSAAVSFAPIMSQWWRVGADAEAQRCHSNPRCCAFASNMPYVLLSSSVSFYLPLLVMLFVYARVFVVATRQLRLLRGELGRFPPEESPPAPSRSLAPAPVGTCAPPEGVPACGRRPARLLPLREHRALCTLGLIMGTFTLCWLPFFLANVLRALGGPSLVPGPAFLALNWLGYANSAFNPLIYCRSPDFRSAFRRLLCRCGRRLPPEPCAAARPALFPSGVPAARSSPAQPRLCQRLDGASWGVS

Block 1 — cell line: NCI-H446; time: 5 days; relative to: DMSO
SMILES: CC(C)C[C@@H]1NC(=O)[C@@H](N(C)C(=O)[C@H](CC2CCC2)NC(=O)[C@@H]2C[C@@H](F)CN2C(=O)C2(C(F)(F)F)CC(F)(F)C2)CCCCNC(=O)C2(CC2)NC(=O)[C@H](Cc2cc(Cl)ccc2Cl)N(C)C1=O
| method | concentration | added | cell growth |
| --- | --- | --- | --- |
| cell counting | 371 nM | – | 14.2% and 12.8% |
| cell counting | 1.11 µM | – | 15.7% and 12.7% |
| Vi-Cell counting | 4.57 nM | Myt1 inhibitor 1000 nM | 61.8% and 42.6% |
| cell counting | 41.1 nM | – | 25.9% and 32.5% |
| cell counting | 1.52 nM | – | 80.5% and 96.3% |
| cell counting | 124 nM | – | 14.9% and 17.6% |
| Vi-Cell counting | 10 µM | Myt1 inhibitor 1000 nM | 5.46% and 4.74% |

Block 2 — effect on: enzyme activity; mode: inhibitor; concentration: 10 µM
Target: Calcium/calmodulin-dependent protein kinase type II subunit alpha (CAMK2A, Homo sapiens, UniProt Q9UQM7)
Sequence of UniProt Q9UQM7 (whole entry, looked up): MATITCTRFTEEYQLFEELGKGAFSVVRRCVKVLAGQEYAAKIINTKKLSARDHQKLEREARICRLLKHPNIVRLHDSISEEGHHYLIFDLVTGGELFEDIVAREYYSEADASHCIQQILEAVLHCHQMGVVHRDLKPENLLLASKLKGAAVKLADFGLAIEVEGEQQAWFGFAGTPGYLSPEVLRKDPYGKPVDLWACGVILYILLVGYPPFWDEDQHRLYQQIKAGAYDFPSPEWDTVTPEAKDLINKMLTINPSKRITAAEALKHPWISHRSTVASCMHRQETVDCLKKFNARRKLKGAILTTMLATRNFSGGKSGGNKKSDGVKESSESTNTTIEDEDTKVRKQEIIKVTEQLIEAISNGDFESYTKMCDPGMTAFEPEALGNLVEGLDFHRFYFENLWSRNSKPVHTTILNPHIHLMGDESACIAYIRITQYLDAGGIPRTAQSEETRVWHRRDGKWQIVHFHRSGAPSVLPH
| Compound | inhibition [%] |
| --- | --- |
| C[C@]1(O)C[C@@H](O)[C@]2(O)C=CO[C@@H](O[C@@H]3O[C@H](CO)[C@@H](O)[C@H](O)[C@H]3O)[C@@H]21 | -13 |
| CCCCCCCCCCCC[N+](C)(C)CCOc1ccccc1 | -1 |
| NC(Cc1c[nH]c2ccccc12)C(=O)O (racemic) | 27 |
| Nc1ncn([C@@H]2O[C@H](CO)[C@@H](O)[C@H]2O)c(=O)n1 | -10 |
| O=C(O)CCc1ccc(O)cc1 | 14 |
| CCCC(CCC)C(N)=O | -8 |
| C=CCSC[C@H](N)C(=O)O | -19 |

Block 3 — effect on: enzyme activity; mode: inhibitor; concentration: 77 µM; relative to: untreated
Target: DNA polymerase theta, ATPase domain (POLQ, Homo sapiens, UniProt O75417)
Sequence of UniProt O75417 (whole entry, unmodified, looked up): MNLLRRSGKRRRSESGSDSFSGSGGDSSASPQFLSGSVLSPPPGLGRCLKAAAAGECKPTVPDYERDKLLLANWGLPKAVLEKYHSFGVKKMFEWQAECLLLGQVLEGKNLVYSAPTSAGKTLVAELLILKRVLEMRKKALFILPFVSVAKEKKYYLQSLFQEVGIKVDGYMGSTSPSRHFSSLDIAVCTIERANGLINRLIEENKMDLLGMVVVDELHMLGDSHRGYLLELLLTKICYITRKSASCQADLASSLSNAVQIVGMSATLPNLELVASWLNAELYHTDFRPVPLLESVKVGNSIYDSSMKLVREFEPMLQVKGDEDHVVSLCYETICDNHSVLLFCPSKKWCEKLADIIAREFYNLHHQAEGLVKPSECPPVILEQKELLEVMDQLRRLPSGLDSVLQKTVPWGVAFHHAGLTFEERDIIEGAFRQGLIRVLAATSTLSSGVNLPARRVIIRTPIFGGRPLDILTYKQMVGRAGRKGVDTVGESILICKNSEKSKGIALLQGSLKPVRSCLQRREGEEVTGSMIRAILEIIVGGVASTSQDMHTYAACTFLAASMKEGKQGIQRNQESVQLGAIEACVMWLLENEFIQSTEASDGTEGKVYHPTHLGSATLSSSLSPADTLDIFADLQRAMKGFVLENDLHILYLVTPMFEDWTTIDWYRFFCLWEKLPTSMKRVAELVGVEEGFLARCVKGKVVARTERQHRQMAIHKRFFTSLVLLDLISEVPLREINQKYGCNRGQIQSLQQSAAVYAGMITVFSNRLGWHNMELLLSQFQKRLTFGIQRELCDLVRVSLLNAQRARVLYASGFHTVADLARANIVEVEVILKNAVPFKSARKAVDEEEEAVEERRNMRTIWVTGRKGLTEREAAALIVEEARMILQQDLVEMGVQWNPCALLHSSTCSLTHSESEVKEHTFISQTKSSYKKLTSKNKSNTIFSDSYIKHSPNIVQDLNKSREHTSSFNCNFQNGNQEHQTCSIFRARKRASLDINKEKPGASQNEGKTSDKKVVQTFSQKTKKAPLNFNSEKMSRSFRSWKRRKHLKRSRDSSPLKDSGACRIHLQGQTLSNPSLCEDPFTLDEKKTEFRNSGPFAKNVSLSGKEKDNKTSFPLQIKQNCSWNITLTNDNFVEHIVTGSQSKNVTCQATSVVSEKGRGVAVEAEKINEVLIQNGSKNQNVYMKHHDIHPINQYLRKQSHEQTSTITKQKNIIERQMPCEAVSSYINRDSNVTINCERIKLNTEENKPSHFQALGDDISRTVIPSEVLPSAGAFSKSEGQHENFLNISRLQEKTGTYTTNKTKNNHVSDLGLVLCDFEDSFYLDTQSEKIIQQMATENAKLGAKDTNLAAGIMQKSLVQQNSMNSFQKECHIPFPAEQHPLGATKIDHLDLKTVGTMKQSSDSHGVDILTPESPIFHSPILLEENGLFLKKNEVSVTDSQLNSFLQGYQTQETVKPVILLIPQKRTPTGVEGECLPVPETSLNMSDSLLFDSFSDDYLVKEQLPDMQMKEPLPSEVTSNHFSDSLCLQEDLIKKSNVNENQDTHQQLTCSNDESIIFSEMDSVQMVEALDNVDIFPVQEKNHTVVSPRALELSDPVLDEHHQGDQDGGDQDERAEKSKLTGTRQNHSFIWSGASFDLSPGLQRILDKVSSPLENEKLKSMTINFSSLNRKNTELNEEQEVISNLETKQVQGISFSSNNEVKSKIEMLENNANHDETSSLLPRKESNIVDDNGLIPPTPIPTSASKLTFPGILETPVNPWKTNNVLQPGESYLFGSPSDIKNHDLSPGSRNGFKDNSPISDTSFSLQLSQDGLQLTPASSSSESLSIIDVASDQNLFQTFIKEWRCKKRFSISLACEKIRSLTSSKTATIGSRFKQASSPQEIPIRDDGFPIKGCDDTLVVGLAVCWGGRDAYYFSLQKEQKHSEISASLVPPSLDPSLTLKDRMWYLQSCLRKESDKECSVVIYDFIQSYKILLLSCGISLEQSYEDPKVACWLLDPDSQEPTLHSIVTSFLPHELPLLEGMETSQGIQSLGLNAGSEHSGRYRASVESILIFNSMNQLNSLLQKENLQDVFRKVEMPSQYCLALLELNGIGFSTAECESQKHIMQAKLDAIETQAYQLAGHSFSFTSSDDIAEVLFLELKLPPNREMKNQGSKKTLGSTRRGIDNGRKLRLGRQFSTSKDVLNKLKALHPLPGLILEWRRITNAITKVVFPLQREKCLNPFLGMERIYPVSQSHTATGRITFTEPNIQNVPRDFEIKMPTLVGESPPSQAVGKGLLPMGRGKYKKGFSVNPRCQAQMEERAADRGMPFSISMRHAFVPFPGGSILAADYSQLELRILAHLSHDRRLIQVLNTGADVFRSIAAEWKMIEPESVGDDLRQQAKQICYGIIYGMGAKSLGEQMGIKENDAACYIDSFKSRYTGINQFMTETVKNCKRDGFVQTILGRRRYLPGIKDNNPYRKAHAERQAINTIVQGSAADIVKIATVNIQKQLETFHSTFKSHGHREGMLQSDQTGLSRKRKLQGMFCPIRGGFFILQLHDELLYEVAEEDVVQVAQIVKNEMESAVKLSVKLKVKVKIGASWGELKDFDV
| SMILES | remaining activity |
| --- | --- |
| Cc1cc(C)cc(NC(=O)Cc2ccc(OC(C)(C)C(=O)O)cc2)c1 | 95.1% |
| CC1CC(OC(=O)c2ccccc2O)CC(C)(C)C1 (stereo not shown) | 102% |
| CCOC1O[C@H]([C@@H](COCc2ccccc2)OCc2ccccc2)[C@H](OCc2ccccc2)[C@H]1O (stereo partly shown) | 104% |
| O=c1ncccn1[C@@H]1O[C@H](CO)[C@@H](O)[C@H]1O | 93% |

Block 4 — concentration: 10 µM
Structure (SMILES): Cc1cc2c(-c3ccco3)cnc(N[C@@H]3CCN(C)C[C@H]3C(=O)NC3CCCCC3)c2[nH]c1=O
| target | effect on | method | inhibition |
| --- | --- | --- | --- |
| DRD1 (Homo sapiens, UniProt P21728) | ligand displacement | – | 27.3% |
| HRH2 (Homo sapiens, UniProt P25021) | ligand displacement | – | -1.12% |
| HTR1D (Homo sapiens, UniProt P28221) | cell-free assay | – | -6.42% |
| ADRA1A (Homo sapiens, UniProt P35348) | ligand displacement | – | 25.2% |
| HRH3 (Homo sapiens, UniProt Q9Y5N1) | ligand displacement | – | -9.93% |
| DRD3 (Homo sapiens, UniProt P35462) | ligand displacement | – | 9.01% |
| DRD2 (Homo sapiens, UniProt P14416) | ligand displacement | – | -4.38% |
| ADRB1 (Homo sapiens, UniProt P08588) | ligand displacement | – | 1.68% |
| HTR1B (Homo sapiens, UniProt P28222) | binding | radioligand binding | 3.37% |
| ADRB3 (Homo sapiens, UniProt P13945) | ligand displacement | – | 13.8% |
| HTR1E (Homo sapiens, UniProt P28566) | cell-free assay | – | -38.6% |
| ADRA2B (Homo sapiens, UniProt P18089) | ligand displacement | – | -0.37% |
| CHRM4 (Homo sapiens, UniProt P08173) | ligand displacement | – | 17.1% |

A few entries again (block 4):
| target | effect on | method | inhibition |
| --- | --- | --- | --- |
| HTR1B (Homo sapiens, UniProt P28222) | binding | radioligand binding | 3.37% |
| ADRB3 (Homo sapiens, UniProt P13945) | ligand displacement | – | 13.8% |
| HTR1E (Homo sapiens, UniProt P28566) | cell-free assay | – | -38.6% |
| ADRA2B (Homo sapiens, UniProt P18089) | ligand displacement | – | -0.37% |
| CHRM4 (Homo sapiens, UniProt P08173) | ligand displacement | – | 17.1% |
